Measured values collected from several papers.
Protocols differ between the studies behind these lines. Several values in a cell are separate wells, animals, samples, runs or records. Numbers after ± are the reported error.
UniProt Q01959, sequence (whole entry, unmodified, looked up): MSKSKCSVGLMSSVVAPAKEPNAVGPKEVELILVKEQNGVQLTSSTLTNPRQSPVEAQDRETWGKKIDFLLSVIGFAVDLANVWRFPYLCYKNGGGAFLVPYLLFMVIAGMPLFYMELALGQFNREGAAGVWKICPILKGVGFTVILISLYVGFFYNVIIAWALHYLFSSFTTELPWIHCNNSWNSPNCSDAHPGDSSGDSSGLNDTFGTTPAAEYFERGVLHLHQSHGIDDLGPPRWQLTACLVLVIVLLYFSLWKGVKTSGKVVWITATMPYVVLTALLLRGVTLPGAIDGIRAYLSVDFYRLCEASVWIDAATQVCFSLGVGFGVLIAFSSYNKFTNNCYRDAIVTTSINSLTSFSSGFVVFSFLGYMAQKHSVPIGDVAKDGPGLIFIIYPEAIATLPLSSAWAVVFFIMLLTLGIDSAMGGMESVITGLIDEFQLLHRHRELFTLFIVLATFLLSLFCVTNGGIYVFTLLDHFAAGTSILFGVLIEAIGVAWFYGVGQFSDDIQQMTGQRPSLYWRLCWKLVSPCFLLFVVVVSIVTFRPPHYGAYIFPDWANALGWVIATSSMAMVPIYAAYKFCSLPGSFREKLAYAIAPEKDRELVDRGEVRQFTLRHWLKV
UniProt P47901, sequence (whole entry, looked up): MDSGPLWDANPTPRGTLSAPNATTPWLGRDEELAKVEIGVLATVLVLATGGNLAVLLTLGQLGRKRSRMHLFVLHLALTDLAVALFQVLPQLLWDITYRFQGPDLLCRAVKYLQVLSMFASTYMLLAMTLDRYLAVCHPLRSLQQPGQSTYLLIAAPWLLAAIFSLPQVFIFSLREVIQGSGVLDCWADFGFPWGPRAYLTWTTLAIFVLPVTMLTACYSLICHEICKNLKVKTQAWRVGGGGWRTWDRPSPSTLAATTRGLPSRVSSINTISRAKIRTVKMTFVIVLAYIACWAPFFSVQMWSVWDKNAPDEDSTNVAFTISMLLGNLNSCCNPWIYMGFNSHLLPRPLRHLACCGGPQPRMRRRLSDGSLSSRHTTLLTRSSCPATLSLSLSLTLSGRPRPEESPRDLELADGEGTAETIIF
UniProt P21554, sequence (whole entry, looked up): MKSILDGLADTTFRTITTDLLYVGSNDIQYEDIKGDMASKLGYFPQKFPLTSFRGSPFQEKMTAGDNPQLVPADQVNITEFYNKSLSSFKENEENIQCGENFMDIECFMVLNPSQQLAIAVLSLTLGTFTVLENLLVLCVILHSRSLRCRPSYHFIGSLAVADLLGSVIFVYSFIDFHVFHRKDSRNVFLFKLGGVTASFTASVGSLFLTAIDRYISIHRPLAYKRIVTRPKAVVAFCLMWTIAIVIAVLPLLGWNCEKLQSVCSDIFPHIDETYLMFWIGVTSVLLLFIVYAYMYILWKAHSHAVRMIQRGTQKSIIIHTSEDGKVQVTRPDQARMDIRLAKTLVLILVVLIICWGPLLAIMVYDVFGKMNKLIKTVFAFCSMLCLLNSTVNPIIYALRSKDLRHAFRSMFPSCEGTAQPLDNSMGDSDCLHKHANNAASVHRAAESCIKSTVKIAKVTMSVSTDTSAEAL
UniProt Q96P68, sequence (whole entry, looked up): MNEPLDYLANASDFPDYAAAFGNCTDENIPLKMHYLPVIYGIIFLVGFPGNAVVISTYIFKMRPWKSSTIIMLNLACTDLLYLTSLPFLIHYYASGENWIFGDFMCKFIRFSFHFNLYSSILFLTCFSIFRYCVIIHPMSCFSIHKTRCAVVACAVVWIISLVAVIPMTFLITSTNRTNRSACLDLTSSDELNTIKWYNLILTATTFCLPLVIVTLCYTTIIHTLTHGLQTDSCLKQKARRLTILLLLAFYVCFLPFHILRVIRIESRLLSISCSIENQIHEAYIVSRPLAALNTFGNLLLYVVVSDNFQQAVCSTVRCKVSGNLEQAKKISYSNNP
UniProt P9WKI7, sequence (whole entry, looked up): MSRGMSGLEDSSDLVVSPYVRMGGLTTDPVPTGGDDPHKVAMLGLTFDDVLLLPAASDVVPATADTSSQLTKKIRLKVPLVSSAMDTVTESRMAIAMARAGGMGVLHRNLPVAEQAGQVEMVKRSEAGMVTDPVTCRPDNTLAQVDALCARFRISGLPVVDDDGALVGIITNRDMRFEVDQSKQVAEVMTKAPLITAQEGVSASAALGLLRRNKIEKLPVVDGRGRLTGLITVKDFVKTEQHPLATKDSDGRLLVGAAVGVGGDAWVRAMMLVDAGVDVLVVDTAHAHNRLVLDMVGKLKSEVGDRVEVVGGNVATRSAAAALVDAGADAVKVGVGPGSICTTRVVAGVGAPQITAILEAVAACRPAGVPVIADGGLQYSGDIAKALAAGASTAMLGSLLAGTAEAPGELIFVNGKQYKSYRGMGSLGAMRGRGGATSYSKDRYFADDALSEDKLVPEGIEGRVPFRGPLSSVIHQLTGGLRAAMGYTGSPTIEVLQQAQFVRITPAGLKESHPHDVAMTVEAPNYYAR
UniProt P28335, sequence (whole entry, looked up): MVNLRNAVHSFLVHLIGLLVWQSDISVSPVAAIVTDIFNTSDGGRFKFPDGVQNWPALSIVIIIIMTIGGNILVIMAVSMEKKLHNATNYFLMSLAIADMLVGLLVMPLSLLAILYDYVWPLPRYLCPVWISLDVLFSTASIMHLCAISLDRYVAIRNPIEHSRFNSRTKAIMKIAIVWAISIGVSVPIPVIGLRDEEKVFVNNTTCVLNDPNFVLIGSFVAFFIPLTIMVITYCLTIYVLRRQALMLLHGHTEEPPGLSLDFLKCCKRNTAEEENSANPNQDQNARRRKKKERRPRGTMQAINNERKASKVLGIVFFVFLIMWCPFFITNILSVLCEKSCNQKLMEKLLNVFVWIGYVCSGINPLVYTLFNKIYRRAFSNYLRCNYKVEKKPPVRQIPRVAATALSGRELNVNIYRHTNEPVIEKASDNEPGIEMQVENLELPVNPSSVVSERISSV
UniProt P08172, sequence (whole entry, looked up): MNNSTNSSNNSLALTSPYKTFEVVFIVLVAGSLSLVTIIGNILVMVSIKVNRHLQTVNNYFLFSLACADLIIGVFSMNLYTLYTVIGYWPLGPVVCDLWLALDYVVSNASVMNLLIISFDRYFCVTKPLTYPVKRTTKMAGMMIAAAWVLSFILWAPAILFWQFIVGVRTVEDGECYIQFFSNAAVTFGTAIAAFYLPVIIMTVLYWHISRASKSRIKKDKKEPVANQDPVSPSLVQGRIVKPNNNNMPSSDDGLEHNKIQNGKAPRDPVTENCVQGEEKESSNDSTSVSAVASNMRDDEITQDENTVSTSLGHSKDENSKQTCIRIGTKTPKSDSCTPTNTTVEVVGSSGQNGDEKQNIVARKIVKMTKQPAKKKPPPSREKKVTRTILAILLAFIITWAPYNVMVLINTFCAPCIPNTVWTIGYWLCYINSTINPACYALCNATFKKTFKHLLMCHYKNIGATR
UniProt P25021, sequence (whole entry, looked up): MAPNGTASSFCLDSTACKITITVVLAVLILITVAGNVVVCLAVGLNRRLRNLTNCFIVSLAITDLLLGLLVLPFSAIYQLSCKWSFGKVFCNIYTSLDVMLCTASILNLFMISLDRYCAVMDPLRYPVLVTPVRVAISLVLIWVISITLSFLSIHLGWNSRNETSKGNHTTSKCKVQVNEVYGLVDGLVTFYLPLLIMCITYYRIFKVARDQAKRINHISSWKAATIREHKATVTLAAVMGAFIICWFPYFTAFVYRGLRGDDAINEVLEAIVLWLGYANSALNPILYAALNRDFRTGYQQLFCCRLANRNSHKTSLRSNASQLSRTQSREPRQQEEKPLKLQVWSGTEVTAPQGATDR
UniProt Q8NET8, sequence (whole entry, unmodified, looked up): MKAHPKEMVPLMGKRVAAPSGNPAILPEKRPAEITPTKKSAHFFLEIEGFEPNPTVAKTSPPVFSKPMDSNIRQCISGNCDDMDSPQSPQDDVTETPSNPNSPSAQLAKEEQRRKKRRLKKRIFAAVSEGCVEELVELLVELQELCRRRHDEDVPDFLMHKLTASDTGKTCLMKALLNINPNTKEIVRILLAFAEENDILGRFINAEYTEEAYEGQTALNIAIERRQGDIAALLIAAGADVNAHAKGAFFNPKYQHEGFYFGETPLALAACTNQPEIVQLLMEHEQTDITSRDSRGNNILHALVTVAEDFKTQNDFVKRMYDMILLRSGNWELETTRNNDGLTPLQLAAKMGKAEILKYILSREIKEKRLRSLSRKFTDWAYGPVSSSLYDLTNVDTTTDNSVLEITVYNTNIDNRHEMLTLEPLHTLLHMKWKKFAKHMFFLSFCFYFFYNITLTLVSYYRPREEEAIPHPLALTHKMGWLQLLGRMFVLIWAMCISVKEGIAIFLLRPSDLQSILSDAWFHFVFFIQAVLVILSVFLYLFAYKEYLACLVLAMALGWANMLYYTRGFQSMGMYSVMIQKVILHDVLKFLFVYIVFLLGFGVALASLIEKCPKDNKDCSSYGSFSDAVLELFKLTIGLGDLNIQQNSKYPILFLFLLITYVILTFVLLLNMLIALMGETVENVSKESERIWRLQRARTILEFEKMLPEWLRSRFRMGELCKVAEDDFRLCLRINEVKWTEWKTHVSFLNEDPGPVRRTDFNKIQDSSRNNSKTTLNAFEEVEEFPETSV

Structure (SMILES) = CCCc1cc(O)c2c(c1)OC(C)(C)[C@@H]1CCC(C)=C[C@@H]21; target or system = TRPV3 (Homo sapiens, UniProt Q8NET8, E501A); test = calcium uptake, agonist; system = HEK293S; setting = mutant E501A, site 2; quantity = Hill coefficient; result = 2.1 ± 0.05
Structure (SMILES) = Clc1cccc(N2CCNCC2)c1Cl; target or system = CHRM2 (Homo sapiens, UniProt P08172); test = ERK1/2 phosphorylation, agonist; system = CHO cells; quantity = Emax; result = < 10%
Structure (SMILES) = C=CCN1CC[C@]23c4c5ccc(O)c4O[C@H]2C(=O)CC[C@]3(O)[C@H]1C5; target or system = HRH2 (Homo sapiens, UniProt P25021); setting = concentration not given; quantity = inhibition; result = 9.7%
Structure (SMILES) = c1ccc2cc([C@]34CNC[C@H]3C4)ccc2c1; target or system = SLC6A3 (Homo sapiens, UniProt Q01959, V152A); test = inhibitor, [3H]dopamine uptake; setting = 10 nM, V152A mutant; how to read = relative to: no inhibitor; quantity = dopamine uptake; result = 81.4% and 86.7% and 72.4%
Structure (SMILES) = C=C1CC[C@H](OCCCNC(=O)CCOCCOCCOCCOCCOCCOCCOCCOCCOCCOCCOCCOCCOCCOCCOCCOCCOCCOCCOCCOCCOCCOCCOCCOCCOCCOCCOCCOCCOCCOCCOCCOCCOCCOCCOCCOCCNC(=O)CCN2C(=O)CC(SC[C@H](NC(=O)[C@H](CCCNC(=N)N)NC(=O)[C@@H]3CCCN3C(=O)[C@H](CCC(N)=O)NC(=O)[C@H](CC(C)C)NC(=O)[C@H](CCCCN)NC(=O)[C@H](C)NC(=O)[C@@H]3CCCN3C(=O)[C@@H]3CCCN3C(=O)[C@H](CCCCN)NC(=O)[C@H](CCCCN)NC(=O)[C@H](CO)NC(=O)[C@H](CCC(=O)O)NC(=O)[C@H](CCCCN)NC(=O)[C@H](CCCNC(=N)N)NC(=O)[C@H](CCC(N)=O)NC(=O)[C@H](CCC(N)=O)NC(=O)[C@@H](NC(=O)[C@H](CCCNC(=N)N)NC(=O)[C@H](CCC(N)=O)NC(=O)[C@H](Cc3c[nH]cn3)NC(=O)[C@H](CCC(=O)O)NC(=O)[C@@H]3CCCN3C(=O)[C@H](CO)NC(=O)[C@H](CC(C)C)NC(=O)[C@H](Cc3ccccc3)NC(=O)[C@H](CNC(=O)CCCCCCC)NC(=O)[C@H](CO)NC(=O)CN)C(C)C)C(=O)O)C2=O)C/C1=C/C=C1\CCC[C@]2(C)[C@@H]([C@H](C)CCCC(C)(C)O)CC[C@@H]12 (stereo partly drawn); test = allometric scaling; system = human; quantity = half-life; result = ~123 h
Structure (SMILES) = CN1C(=O)CN=C(c2ccccc2)c2cc(Cl)ccc21; target or system = GABA-A central benzodiazepine site (rat); test = radioligand binding; setting = concentration not given; quantity = inhibition; result = 100%
Structure (SMILES) = CN1CC[C@]2(C)c3cc(OC(=O)Nc4ccccc4)ccc3N(C)[C@H]12; target or system = human nicotinic α3β4 receptor; test = radioligand binding; setting = 10 µM, together with: [3H]epibatidine; quantity = inhibition; result = 0.9%
Structure (SMILES) = Oc1ccc2c3c1O[C@H]1[C@@H](O)CC[C@@]4(O)[C@@H](C2)N(CC2CCC2)CC[C@]314; target or system = OXGR1 (Homo sapiens, UniProt Q96P68); test = β-arrestin recruitment, TANGO luminescence; setting = concentration not given; how to read = relative to: basal luminescence; quantity = log2 fold change; result = 0.514
Structure (SMILES) = COC(=O)[C@@H](NC(=O)c1nn(Cc2ccc(F)cc2)c2ccccc12)C(C)(C)C; target or system = Cannabinoid receptor 1, with Goa (CNR1, Homo sapiens, UniProt P21554); test = GTP turnover, agonist, item: Goa Gα subtype; quantity = maximal efficacy; result = 122%
Structure (SMILES) = COc1cc(CCNC(C)c2ccccc2O)c(OC)cc1C#N (single isomer, unassigned; (-)); target or system = HTR2C (Homo sapiens, UniProt P28335); test = calcium flux, agonist; how to read = relative to: 5-HT; quantity = Emax; result = 98%
Structure (SMILES) = CC[C@H](C)[C@H](NC(=O)[C@H](Cc1ccccc1)NC(=O)[C@H](CCC(=O)O)NC(=O)[C@H](CCCNC(=N)N)NC(=O)[C@H](C)NC(=O)[C@H](C)NC(=O)[C@H](CCC(N)=O)NC(=O)[C@H](CCC(=O)O)NC(=O)[C@H](CCC(=O)O)NC(=O)[C@H](CC(C)C)NC(=O)[C@H](Cc1ccc(O)cc1)NC(=O)[C@H](CO)NC(=O)[C@H](CO)NC(=O)[C@@H](NC(=O)[C@H](CC(=O)O)NC(=O)[C@H](CO)NC(=O)[C@@H](NC(=O)[C@H](Cc1ccccc1)NC(=O)[C@@H](NC(=O)CNC(=O)[C@H](CCC(=O)O)NC(=O)[C@H](C)NC(=O)CCc1cnc[nH]1)[C@@H](C)O)[C@@H](C)O)C(C)C)C(=O)N[C@@H](C)C(=O)N[C@@H](Cc1c[nH]c2ccccc12)C(=O)N[C@@H](CC(C)C)C(=O)N[C@H](C(=O)N[C@@H](CCCNC(=N)N)C(=O)NCC(=O)N[C@@H](CCCNC(=N)N)C(=O)N[C@@H](CCCCNC(=O)COCCOCCNC(=O)COCCOCCNC(=O)CC[C@H](NC(=O)CCCCCCCCCCCCCCCCC(=O)O)C(=O)O)C(=O)NCC(=O)NCC(=O)N[C@@H](CO)C(=O)N[C@@H](CCCCNC(=O)[C@H](CCCCNc1c(NCCCCCN(O)C(=O)CCC(=O)NCCCCCN(O)C(=O)CCC(=O)NCCCCCN(O)C(C)=O)c(=O)c1=O)Nc1c(NCCCCCN(O)C(=O)CCC(=O)NCCCCCN(O)C(=O)CCC(=O)NCCCCCN(O)C(C)=O)c(=O)c1=O)C(=O)O)C(C)C; target or system = GLP1R (Homo sapiens, UniProt P43220); test = cAMP reporter gene, agonist, CRE luciferase; system = BHK; setting = without Zr, 0% HSA; quantity = EC50; result = 5.6 pM
Structure (SMILES) = NC(=O)c1ccc[n+]([C@@H]2O[C@H](COP(=O)([O-])OP(=O)(O)OC[C@H]3O[C@@H](n4cnc5c(N)ncnc54)[C@H](O)[C@@H]3O)[C@@H](O)[C@H]2O)c1; target or system = Inosine-5'-monophosphate dehydrogenase (Mycobacterium tuberculosis, UniProt P9WKI7); test = substrate; quantity = Km; result = 940 ± 31 µM
Structure (SMILES) = CC(C)C[C@@H]1NC(=O)[C@H](CC(C)C)NC(=O)[C@H](Cc2c[nH]c3ccccc23)NC(=O)[C@H](CO)NC(=O)[C@H](Cc2c[nH]c3ccccc23)NC(=O)[C@@H]2CCCN2C(=O)[C@H](CC(C)C)NC(=O)[C@H](Cc2c[nH]cn2)NC(=O)[C@@H]2CCCN2C(=O)[C@H](CC(N)=O)NC(=O)[C@H](C)NC(=O)[C@H](Cc2ccc(O)cc2)NC(=O)[C@H](CS)NC(=O)[C@H](CCCCNC(=O)CN2CCN(CC(=O)O)CCN(CC(=O)O)CCN(CC(=O)O)CC2)NC1=O [lutetium-177 labelled]; system = Balb/c mouse, female, 4T1 tumour, spleen; setting = intravenous, 3.7 MBq, 1 h; quantity = tissue uptake; result = 0.11 ± 0.09 %ID
Structure (SMILES) = CCCCCCCC[C@H]1O[C@H]1C/C=C/C=C/[C@H](O)CC(=O)NC1=C[C@](C)(CC)OC1=O; target or system = Na(+)-translocating NADH-quinone reductase subunit B, whole Na+-NQR complex (nqrB, Vibrio cholerae serotype O1, UniProt Q9KPS2, G141A); test = binding, isothermal titration calorimetry; setting = 20 °C, NqrB-G141A mutant; quantity = −TΔS; result = 60 kcal/mol
Structure (SMILES) = Cc1cc(C(=O)NC(C)(C)COc2cccc3c2C(N)=NS(=O)(=O)N3)cc(C)n1; target or system = Escherichia coli; test = Ames test, initial; system = WP2 uvrA; setting = 5000 µg/plate; how to read = relative to: solvent control; quantity = revertant ratio; result = 1.4
Structure (SMILES) = Cc1[nH]c2ccccc2c1-c1csc(-c2c[nH]c3ccccc23)n1; target or system = differentiated W12E; test = CUT&RUN-qPCR; setting = concentration not given; how to read = relative to: untreated; quantity = BARD1 binding at HPV ori; result = decreased
Structure (SMILES) = CN[C@@]1(c2ccccc2Cl)CCCCC1=O; target or system = AMPA receptor; test = radioligand binding, agonist, radioligand displacement; setting = 30 µM; quantity = inhibition; result = 1%
Structure (SMILES) = C[C@H]1CN(c2n[nH]c3nc(N[C@H]4CC[C@H](NS(=O)(=O)CCC(F)(F)F)CC4)ncc23)CCO1; target or system = Exportin-1 (XPO1, Homo sapiens, UniProt O14980); test = inhibitor, Kinobeads competition profiling; setting = 0.8 µM; how to read = relative to: vehicle; quantity = relative abundance; result = 1.1
Structure (SMILES) = CC(C)OC(=O)[C@H](C)N[P@](=O)(OC[C@H]1O[C@@H](n2ccc(=O)[nH]c2=O)[C@](C)(F)[C@@H]1O)Oc1ccccc1; target or system = Genome polyprotein, NS5 (GP1, West Nile virus, UniProt Q9Q6P4); test = binding; quantity = association rate constant; result = 144 M⁻¹ s⁻¹
Structure (SMILES) = CN1CCN(c2cc(-c3ccncc3)c(-c3ccc4ccccc4c3)nn2)CC1; target or system = AVPR1B (Homo sapiens, UniProt P47901); test = agonist, FLIPR; setting = 12.5 µM; quantity = activation; result = 0.3%
Structure (SMILES) = Brc1ccc2c(c1)C(c1ccccn1)=NCc1c(-c3cnco3)ncn1-2; target or system = translocator protein (PBR), rat; test = radioligand binding; setting = together with: [3H]PK11195; how to read = relative to: PBR over benzodiazepine site; quantity = selectivity ratio; result = 2.2 fold

A few entries again:
Structure (SMILES) = C=C1CC[C@H](OCCCNC(=O)CCOCCOCCOCCOCCOCCOCCOCCOCCOCCOCCOCCOCCOCCOCCOCCOCCOCCOCCOCCOCCOCCOCCOCCOCCOCCOCCOCCOCCOCCOCCOCCOCCOCCOCCOCCOCCNC(=O)CCN2C(=O)CC(SC[C@H](NC(=O)[C@H](CCCNC(=N)N)NC(=O)[C@@H]3CCCN3C(=O)[C@H](CCC(N)=O)NC(=O)[C@H](CC(C)C)NC(=O)[C@H](CCCCN)NC(=O)[C@H](C)NC(=O)[C@@H]3CCCN3C(=O)[C@@H]3CCCN3C(=O)[C@H](CCCCN)NC(=O)[C@H](CCCCN)NC(=O)[C@H](CO)NC(=O)[C@H](CCC(=O)O)NC(=O)[C@H](CCCCN)NC(=O)[C@H](CCCNC(=N)N)NC(=O)[C@H](CCC(N)=O)NC(=O)[C@H](CCC(N)=O)NC(=O)[C@@H](NC(=O)[C@H](CCCNC(=N)N)NC(=O)[C@H](CCC(N)=O)NC(=O)[C@H](Cc3c[nH]cn3)NC(=O)[C@H](CCC(=O)O)NC(=O)[C@@H]3CCCN3C(=O)[C@H](CO)NC(=O)[C@H](CC(C)C)NC(=O)[C@H](Cc3ccccc3)NC(=O)[C@H](CNC(=O)CCCCCCC)NC(=O)[C@H](CO)NC(=O)CN)C(C)C)C(=O)O)C2=O)C/C1=C/C=C1\CCC[C@]2(C)[C@@H]([C@H](C)CCCC(C)(C)O)CC[C@@H]12 (stereo partly drawn); test = allometric scaling; system = human; quantity = half-life; result = ~123 h
Structure (SMILES) = CN[C@@]1(c2ccccc2Cl)CCCCC1=O; target or system = AMPA receptor; test = radioligand binding, agonist, radioligand displacement; setting = 30 µM; quantity = inhibition; result = 1%
Structure (SMILES) = c1ccc2cc([C@]34CNC[C@H]3C4)ccc2c1; target or system = SLC6A3 (Homo sapiens, UniProt Q01959, V152A); test = inhibitor, [3H]dopamine uptake; setting = 10 nM, V152A mutant; how to read = relative to: no inhibitor; quantity = dopamine uptake; result = 81.4% and 86.7% and 72.4%
